Assay results pooled from the literature.
Compare with care: the assays were run in different laboratories. ± gives the spread as reported.
GBA1 R534H: Lysosomal acid glucosylceramidase (GBA1, Homo sapiens, UniProt P04062, R534H)
Sequence of UniProt P04062 (whole entry, unmodified, looked up): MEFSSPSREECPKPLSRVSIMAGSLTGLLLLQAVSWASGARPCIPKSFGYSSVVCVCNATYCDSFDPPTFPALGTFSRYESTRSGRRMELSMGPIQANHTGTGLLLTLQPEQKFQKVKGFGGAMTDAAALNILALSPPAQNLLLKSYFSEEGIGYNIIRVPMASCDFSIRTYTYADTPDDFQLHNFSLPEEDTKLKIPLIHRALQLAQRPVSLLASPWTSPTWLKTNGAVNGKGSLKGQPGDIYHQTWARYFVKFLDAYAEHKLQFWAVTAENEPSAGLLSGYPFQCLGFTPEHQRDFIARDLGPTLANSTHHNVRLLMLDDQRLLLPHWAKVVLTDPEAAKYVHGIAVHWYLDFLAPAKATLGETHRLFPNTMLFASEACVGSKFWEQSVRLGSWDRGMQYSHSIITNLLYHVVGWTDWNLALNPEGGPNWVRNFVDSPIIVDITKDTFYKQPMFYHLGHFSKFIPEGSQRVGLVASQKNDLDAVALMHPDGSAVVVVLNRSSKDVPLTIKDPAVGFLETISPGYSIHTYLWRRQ
GBA1: Lysosomal acid glucosylceramidase (GBA1, Homo sapiens, UniProt P04062)

OC[C@@H]1[C@@H](O)[C@H](O)[C@@H](O)[C@H]2O[C@@H]12  IC50 (GBA1 R534H; enzyme activity, inhibitor; 30 min preincubation, pH 5.2, 37 °C, added: 4-MU-β-Glc): > 100 µM
CC(C)(C)COCCCCCN1C[C@H](O)[C@@H](O)[C@H](O)[C@@H]1CO  Ki (GBA1 R534H; enzyme activity, inhibitor; recombinant Cerezyme, added: 4MU-β-D-glucopyranoside): 120 µM
CCCCOP(=O)(Cc1ccccc1)O[C@@H]1O[C@H](CO)[C@@H](O)[C@H](O)[C@H]1F (mixture of isomers)  Ki (GBA1; enzyme activity, irreversible inhibitor; pH 5.5, 37 °C, added: 2,4-dinitrophenyl beta-D-glucopyranoside): 742 µM
CCCCc1nc2c([nH]1)[C@H](O)[C@@H](O)[C@H](O)[C@H]2O  Ki (GBA1 R534H; enzyme activity, inhibitor; pH 6.8): 0.079 µM
CC(OCCCCCN1C[C@H](O)[C@@H](O)[C@H](O)[C@H]1CO)C(C)(C)C (stereo partly shown)  Ki (GBA1 R534H; enzyme activity, inhibitor; recombinant Cerezyme, added: 4MU-β-D-glucopyranoside): 7.3 µM
CCCCOP(=O)(CCCC)O[C@@H]1O[C@H](CO)[C@@H](O)[C@H](O)[C@H]1F (mixture of isomers)  Ki (GBA1; enzyme activity, irreversible inhibitor; pH 5.5, 37 °C, added: 2,4-dinitrophenyl beta-D-glucopyranoside): 264 µM
CC(C)COCCCCCN1C[C@H](O)[C@@H](O)[C@H](O)[C@H]1CO  Ki (GBA1 R534H; enzyme activity, inhibitor; recombinant Cerezyme, added: 4MU-β-D-glucopyranoside): 10.8 µM
CC1=CC(C)=[N+]2C1=C(CCCCc1cn(C[C@@H]3[C@@H](O)[C@H](O)[C@@H](O)[C@@H]4O[C@H]34)nn1)c1c(C)cc(C)n1[B-]2(F)F  IC50 (GBA1 R534H; enzyme activity, inhibitor; pH 5.2, added: 4MU-β-D-Glc substrate): 0.00124 ± 4e-05 µM
O[C@H]1[C@H](O)[C@@H](O)c2[nH]cnc2[C@@H]1O  Ki (GBA1 R534H; enzyme activity, inhibitor; pH 6.8): 13.7 µM
CCCCCCCCNP(=O)(OCCCCCCCC)O[C@@H]1O[C@H](CO)[C@@H](O)[C@H](O)[C@H]1F (mixture of isomers)  Ki (GBA1; enzyme activity, irreversible inhibitor; pH 5.5, 37 °C, added: 2,4-dinitrophenyl beta-D-glucopyranoside): 188 µM
COc1ccc(C2=[N+]3C(=C(CCCCc4cn(C[C@@H]5[C@@H](O)[C@H](O)[C@@H](O)[C@@H]6O[C@H]56)nn4)c4ccc(-c5ccc(OC)cc5)n4[B-]3(F)F)C=C2)cc1  IC50 (GBA1; in situ; human monocyte-derived macrophages): ~0.01 µM
CCCCCCCCOP(=O)(CCCCCCCC)O[C@@H]1O[C@H](CO)[C@@H](O)[C@H](O)[C@H]1F (mixture of isomers)  Ki (GBA1; enzyme activity, irreversible inhibitor; pH 5.5, 37 °C, added: 2,4-dinitrophenyl beta-D-glucopyranoside): 377 µM
O=S1(=O)O[C@@H]2[C@H](CO)[C@@H](O)[C@H](O)[C@@H](O)[C@@H]2O1  IC50 (GBA1 R534H; enzyme activity, inhibitor; 30 min preincubation, pH 5.2, 37 °C, added: 4-MU-β-Glc): 119 ± 9.8 µM

Some of these lines once more:
O=S1(=O)O[C@@H]2[C@H](CO)[C@@H](O)[C@H](O)[C@@H](O)[C@@H]2O1  IC50 (GBA1 R534H; enzyme activity, inhibitor; 30 min preincubation, pH 5.2, 37 °C, added: 4-MU-β-Glc): 119 ± 9.8 µM
